Measured values collected from several papers.
Numbered parts are unrelated; each lists some results of a single study. Substitutions count along the parent as printed.

Set 1 — method: DNA-protein interaction ELISA; form: double-stranded DNA, one strand shown; medium: in vitro, bacterial lysate; tested at: not given; setting: whole dsDNA probe, crude lysate protein; baseline: highest signal in screen; direction: higher = stronger binding
Target: Probable WRKY transcription factor 11, DNA-binding domain (WRKY11, Arabidopsis thaliana, UniProt Q9SV15, residues 228-325)
Residues (chain): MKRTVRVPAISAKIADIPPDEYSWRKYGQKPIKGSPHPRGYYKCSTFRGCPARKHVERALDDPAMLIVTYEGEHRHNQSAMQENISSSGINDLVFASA
Strand	relative absorbance
AAAAAATGGTCGTCGTACTCGTGGTCAAAA	76.7 % of maximum
AAAAAAGTTTCTGCTTTCCCTTTCGTAAAA	15 % of maximum
AAAAAAGTACGGATGCCCGCGCGTATAAAA	17 % of maximum
AAAAAATACATTTGACTTTGGGTTTCAAAA	91.9 % of maximum
AAAAAAAATCTTAGCTCTATCTCATCAAAA	17.3 % of maximum
AAAAAACCTCTTGTCTCTGCTCTCCCAAAA	14.4 % of maximum
AAAAAAGTCTGCGTCCTACCCCATTCAAAA	26.2 % of maximum
AAAAAATACGTCTACGTGGTTGTCGTAAAA	18.2 % of maximum
AAAAAATTAGACGCTACACTTACGGTAAAA	17 % of maximum
AAAAAAGGCCACGGTAACCCCTTTTGAAAA	17.6 % of maximum
AAAAAACATTGATAAAATCTCCAGGCAAAA	15.3 % of maximum
AAAAAAGTCCCGCGCTAAGCTTTAAAAAAA	15.6 % of maximum
AAAAAAGTGTTAGATTGTAGTTGATAAAA	17.3 % of maximum
AAAAAAAAGGACATTTTTTCTTTTTGAAAA	13.5 % of maximum
AAAAAATAGTACCGCTAATGGCTGACAAAA	15 % of maximum

Set 2 — method: protein binding microarray; form: double-stranded DNA, one strand shown; medium: in vitro; tested at: not given; baseline: not given; direction: higher = stronger binding
Target: Histone acetyltransferase KAT6A, winged helix 2, GST fusion (KAT6A, Homo sapiens, UniProt Q92794, residues 85-181)
Setting: 8-mer, flanks averaged, mean of 2 arrays, mostly near background
Residues (chain): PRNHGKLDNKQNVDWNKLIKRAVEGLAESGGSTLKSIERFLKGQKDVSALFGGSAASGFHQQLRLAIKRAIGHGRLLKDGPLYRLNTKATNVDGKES
Strand	E-score
CTTCTACC	-0.0153
ATCGTCGA	0.0367
CTTTCGGA	-0.0572
AAGGTAAT	0.0297
TGCGTAAA	-0.0474
CAGACATA	-0.12
GGCATCAC	-0.0224
CCCCCCCC	-0.0276
CGTTCCAG	-0.0651
AGCTGCAG	-0.0206
AGGCTGCG	0.118
ACCATCAC	-0.207
ATGTAATA	-0.0777
CACCTTGC	0.0261
ACCCTATG	-0.0307
CGGAAATC	0.0814
CCGAGAGA	0.0827
CTTAACCA	-0.0961
CCGAATAG	-0.0482
CTCAGTAC	-0.0356
CCCTATCA	-0.0414
CCTACACC	-0.14
ACATACAG	-0.142
AATTGAAG	0.0375
CTGGCCCC	0.264

Set 3 — method: RNA Bind-n-Seq; form: RNA; medium: in vitro; tested at: 365 nM; baseline: no-protein control; direction: higher = stronger binding
Target: RNA binding protein fox-1 homolog 2, RRM domain, GST-SBP tag (RBFOX2, Homo sapiens, UniProt O43251-10, residues 100-194)
Setting: natural RNA segment, single round, ends assumed
All sequences stand within: GGGAGUUCUACAGUCCGACGAUC … UGGAAUUCUCGGGUGCCAA
Construct (chain): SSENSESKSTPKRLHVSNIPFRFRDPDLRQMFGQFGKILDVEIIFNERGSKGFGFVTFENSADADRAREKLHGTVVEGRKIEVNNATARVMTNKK
Strand	RBNS enrichment (R)
AGACCAGCUGCCCUCCUGGCUUUUGGCUUUUUGGUGUCCUUGAAGGAGACCAGUCAUGAGUACCAAGGAAUUUGUCAGCUUGGUUCUAGAACUUAGCAGAGGUUGAGCUC	0.234
AAACUAAAAGGCCUGGCCCCAUUCUGGAAAAGGCAAAGCUGCAUGAGACACAGCCUUCUGCCUCCUCGCCUCUCCUGGACUGGCUUCCUCUUUGAGAAAAUGCACAAAGC	0.503
CUCUGAGCUUUGUUACUGAAAUGAGCCUCGUGGGGAGCAUCAGAGAAGGCCAGGAAGAAUGGUGUGUUUCCCUAGACUCUGUAACCACCUCUCUGUCUUUUUCCUUCCUG	0.424
UUAUCCUAGUAUCUCAGUGUUCAUUCUUCUUGCCUUCAUAUUUUUUUCAAAGAAACAGCUGUGCUAAUGUCUUUGGUUUCCCGAUGAGUGUACACUACUGUAUAAUUUAU	0.647
AUAAUCUGAACAGCAAACAGUGCCAUUAAGUGCACAGAUGUUAAUGCAACUAAUGGUUGUGCCAGCUAUUCCCUAGAGGUCCUAGACACACAGACUGCCUUAGCCCCCAC	0.325
UGGCUCUCAGCAGCUUCCCUGCAGCGCCACUGGGCUAAGGGGGAGCGGCCAUUUAUGUUCAUGUUCACAGGAAGGUCUUCUGCUGCUCCAUCCUAGACCUGCCCCAGUGC	0.378
UUUGUUAAGUUAUCAGCCACGUCUGCAUCACAGACUACAGGUACUACCAUUUAGCGGAGUUAUCUUUGAAAAGACAUCAACAUCCCUGUGCAUUUGUCAGUCUGGUAGAG	0.413
UUUUUUUUUAAAGUGUGGUCCUGUGCUUUCAAAGUAAGUACAGUUCUCUAUGACCAGGCACUUAAACAUAAUUUAAAAGUCCUUGUAGCUUCAGAACCGGAUAAGUUCCA	0.319

Set 4 — method: DHFR PCA, dose-response; medium: yeast; setting: Hill fit, mean, not affinity; together with: (+)-ABA, dose series; direction: lower = more sensitive
Target: ABI1, truncated, D143A, DHFR fusion (Arabidopsis thaliana, UniProt P49597)
Parent: PYL1, truncated, DHFR fusion (Arabidopsis thaliana, UniProt Q8VZS8); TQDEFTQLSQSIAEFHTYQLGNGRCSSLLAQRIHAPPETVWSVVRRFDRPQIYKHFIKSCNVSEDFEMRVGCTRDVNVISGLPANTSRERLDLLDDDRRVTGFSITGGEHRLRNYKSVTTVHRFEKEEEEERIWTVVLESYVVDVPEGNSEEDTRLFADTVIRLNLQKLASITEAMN
Variant	ABA EC50 [µM]
M176P	3.69
L93A	13.5
T39K	1.9
P146A	23.3
A175W	5.98
Y53S	194
E14S	9.05
V136W	7.03
E38A	4.97
R113K	1.49
R163Y	74.7
Q31N	131
S42T	4.9
E109Q	2.87
A84S	175
T1M	1.54
N61S	2.21
Q51W	52.6
G23K	3.41
R123T	2.01
I133A	1.01
S104H	75
A30T	1.76
Q19G	4.45

For quick reference, copied from above (set 1):
Strand	relative absorbance
AAAAAAGGCCACGGTAACCCCTTTTGAAAA	17.6 % of maximum
AAAAAACATTGATAAAATCTCCAGGCAAAA	15.3 % of maximum
AAAAAAGTCCCGCGCTAAGCTTTAAAAAAA	15.6 % of maximum
AAAAAAGTGTTAGATTGTAGTTGATAAAA	17.3 % of maximum
AAAAAAAAGGACATTTTTTCTTTTTGAAAA	13.5 % of maximum
AAAAAATAGTACCGCTAATGGCTGACAAAA	15 % of maximum
